Experimental data of several laboratories.
Protocols differ between the studies behind these lines.

CN[C@@H]1[C@H](O)[C@H](NC)[C@H]2O[C@]3(O)[C@H](O[C@@H]2[C@H]1O)O[C@H](C)C[C@@]3(O)CNCc1ccc(F)cc1
MIC (Moraxella catarrhalis; ATCC 25238): 3 µg/mL

COc1ccc(C2=[N+]([O-])c3ccccc3N3CCN=C23)cc1
MIC (Porphyromonas asaccharolytica): ≤ 0.06 µg/mL

CC[C@H](C)[C@H](NC(=O)[C@H](CCCCN)NC(=O)[C@H](CCCNC(=N)N)NC(=O)[C@H](Cc1c[nH]c2ccccc12)NC(=O)[C@@H](NC(=O)[C@H](CCCCN)NC(=O)[C@H](CCCNC(=N)N)NC(=O)[C@@H](NC(=O)[C@H](CCCNC(=N)N)NC(=O)[C@H](CCCCN)NC(=O)[C@H](CCCNC(=N)N)NC(=O)[C@H](CC(C)C)NC(=O)[C@H](CCCNC(=N)N)NC(=O)[C@H](CO)NC(=O)[C@H](Cc1ccccc1)NC(=O)[C@H](CCCNC(=N)N)NC(=O)CN)[C@@H](C)CC)C(C)C)C(=O)NCC(=O)N1CCC[C@H]1C(=O)N[C@H](C(=O)N[C@@H](C)C(=O)NCC(=O)N1CCC[C@H]1C(=O)N[C@H](C(=O)N[C@H](C(=O)NCC(=O)N[C@@H](Cc1c[nH]cn1)C(=O)N[C@@H](Cc1ccccc1)C(=O)NCC(=O)O)[C@@H](C)CC)[C@@H](C)CC)[C@@H](C)CC
MIC (gram-negative bacteria; agar dilution; clinical isolates; summary range): 8 to 16 µg/mL

CC[C@H](C)[C@@H]1NC(=O)[C@H](CC(C)C)NC(=O)[C@@H](NC(=O)[C@H](CO)NC(=O)[C@H](CCCNC(=N)N)NC(=O)[C@@H](N)CO)CCSSCC[C@@H](C(=O)N[C@@H](CCC(N)=O)C(=O)N[C@@H](CCCNC(=N)N)C(=O)N[C@@H](CC(C)C)C(=O)N[C@@H](Cc2ccccc2)C(N)=O)NC(=O)[C@H](C(C)C)NC1=O
MIC (Candida parapsilosis; broth microdilution; ATCC 22019): 10 µg/mL

C[N+]1=C2C(c3ccccc3)=[N+]([O-])c3ccccc3N2CCC1
MIC (Porphyromonas asaccharolytica): 4 µg/mL

CCCCc1ccc(-c2nc(C)c(C(C)=NNC(=N)N)s2)cc1
MIC (Staphylococcus aureus; VRS5 VRSA): 0.7 µg/mL

[O-][N+]1=C(c2ccccc2)C2=NCCN2c2ccccc21
MIC (Porphyromonas asaccharolytica): ≤ 0.06 µg/mL

CC1C(=NOCc2cn(-c3ccccc3)nn2)C(C)C(c2ccc(Br)cc2)OC1c1ccc(Br)cc1 (stereo not shown)
MIC (Aspergillus niger; microbial growth): 6.3 µg/mL

OB(O)c1cnn(-c2cc(Cl)ncn2)c1
MIC (Klebsiella aerogenes; bacterial growth; AmpC-overproducing clinical isolate; cefotaxime alone): 4 µg/mL

S=C(NCc1ccccn1)NCc1ccccn1
MIC (Agrobacterium; microbial growth, well diffusion): 4.02 µg/mL

C[N+]1=C2C(c3ccc(Cl)cc3)=[N+]([O-])c3ccccc3N2CCC1
MIC (Finegoldia magna): > 16 µg/mL

CCCCCCCCCCCCCC(=O)N[C@H](CCN)C(=O)N[C@@H]1C(=O)N[C@@H](CCN)C(=O)N[C@@H](CC(C)C)C(=O)N[C@@H](CCN)C(=O)N[C@H](Cc2ccccc2)C(=O)N[C@@H](CC(C)C)C(=O)N[C@@H](CCN)C(=O)N[C@H](CCN)C(=O)N[C@@H](C(C)C)C(=O)N[C@@H](CC(=O)O)C(=O)O[C@@H]1C
MIC (MDR Gram-positive and Gram-negative bacteria; up to): 2 to 4 µg/mL

N#Cc1ccc(-c2c[nH]c(CNC(=O)Nc3ncc(Sc4ccccn4)s3)n2)cc1
MIC (Bacteroides fragilis; broth microdilution; ATCC 25285; added: verapamil 50 µg/mL): > 128 µM

CC[C@H](C)[C@H](NC(=O)[C@H](CC(C)C)NC(=O)[C@H](CCC(=O)O)NC(=O)[C@H](CO)NC(=O)[C@H](CCCNC(=N)N)NC(=O)[C@@H](N)CO)C(=O)N[C@H](C(=O)N[C@@H](CCCNC(=N)N)C(=O)N[C@@H](CCC(N)=O)C(=O)N[C@@H](CCCNC(=N)N)C(=O)N[C@@H](CC(C)C)C(=O)N[C@@H](Cc1ccccc1)C(N)=O)C(C)C
MIC (Candida parapsilosis; broth microdilution; RPMI MOPS-buffered): > 400 µg/mL

CC[C@H](C)[C@@H]1NC(=O)CNC(=O)[C@H](CCCCN)NC(=O)[C@H](C)NC(=O)[C@H](CCC(=O)O)NC(=O)[C@H](Cc2ccccc2)NC(=O)[C@H](CO)NC(=O)[C@H](CC(C)C)NC(=O)[C@H](C(C)C)NC(=O)[C@H](CC(=O)O)NC(=O)[C@@H](NC(=O)[C@@H](NC(=O)[C@@H](N)C(C)C)[C@@H](C)O)CSSC[C@@H]2NC(=O)[C@H](CO)NC(=O)CNC(=O)CNC(=O)[C@H](CCCCN)NC(=O)[C@H](CCCCN)NC(=O)[C@H](CCCNC(=N)N)NC(=O)[C@H](CC(C)C)NC(=O)[C@H](C)NC(=O)[C@H]([C@@H](C)CC)NC(=O)[C@H](C)NC(=O)[C@H](Cc3c[nH]cn3)NC(=O)[C@H](CC(C)C)NC(=O)[C@H](C)NC(=O)[C@H](CSSC[C@@H](C(=O)N[C@H](C(=O)N[C@@H](C)C(=O)N[C@@H](CCCNC(=N)N)C(=O)N[C@@H](CC(N)=O)C(=O)O)C(C)C)NC(=O)[C@H](C(C)C)NC(=O)CNC(=O)[C@H](CC(N)=O)NC(=O)[C@H](CCC(N)=O)NC2=O)NC(=O)[C@H](C)NC(=O)[C@H](CO)NC(=O)[C@H](Cc2c[nH]cn2)NC(=O)[C@H](CC(N)=O)NC(=O)[C@H](C(C)C)NC(=O)[C@H](C)NC1=O
MIC (Gram-negative and Gram-positive bacteria; highest tested 100 µM): > 100 µM

CC[C@H](C)[C@H](NC(=O)[C@@H]1CC(=O)N[C@@H](CO)C(=O)N[C@@H](CC(C)C)C(=O)NCC(=O)N[C@@H](CO)C(=O)N[C@@H](CO)C(=O)N2CCC[C@H]2C(=O)N[C@@H](Cc2ccc(O)cc2)C(=O)N[C@@H](CC(N)=O)C(=O)N1)C(=O)N[C@@H](CC(C)C)C(=O)NCC(=O)N[C@@H](Cc1ccc(O)cc1)C(=O)N1CCC[C@H]1C(=O)N[C@@H](C)C(=O)N[C@@H](CC(C)C)C(=O)N[C@H](C(=O)N[C@H](C(=O)N[C@H](C(=O)N[C@@H](Cc1ccc(O)cc1)C(=O)N1CCC[C@H]1C(=O)O)[C@@H](C)CC)C(C)C)[C@@H](C)CC
MIC (Talaromyces stipitatus): > 128 µg/mL

CC[C@H](C)[C@H](NC(=O)[C@H](CC(C)C)NC(=O)CCNC(=O)[C@H](CO)NC(=O)[C@H](CCCNC(=N)N)NC(=O)[C@@H](N)CO)C(=O)N[C@H](C(=O)N[C@@H](Cc1c[nH]cn1)C(=O)N[C@@H](CCC(N)=O)C(=O)N[C@@H](CCCNC(=N)N)C(=O)N[C@@H](CC(C)C)C(=O)N[C@@H](Cc1ccccc1)C(N)=O)C(C)C
MIC (Candida parapsilosis; broth microdilution; RPMI MOPS-buffered): > 400 µg/mL

COC1C=COC2(C)Oc3c(C)c(O)c4c(c3C2=O)C2=NC3(CCN(CC(C)C)CC3)NC2=C(NC(=O)C(C)=CC=CC(C)C(O)C(C)C(O)C(C)C(OC(=O)c2cccnc2)C1C)C4=O (stereo not shown)
MIC (Mycobacteroides abscessus; ATCC 19977 arr knockout): 0.026 µM

CCCCCCCCC/C=C\CCCc1cc(=O)c2ccccc2n1C
MIC (Mycolicibacterium smegmatis; spot culture on 7H10 agar; mc2 155; 3 days, 37 °C): 10 µg/mL

COc1ccc(C2=[N+]([O-])c3ccccc3N3CCCN=C23)cc1
MIC (Porphyromonas gingivalis; microbial growth; ATCC33277): ≤ 0.06 µg/mL

CC(C)Oc1ccc(B(O)O)c(F)n1
MIC (Klebsiella aerogenes; bacterial growth; AmpC-overproducing clinical isolate; cefotaxime alone): 8 µg/mL

CC[C@H](C)[C@H](NC(=O)[C@@H](NC(=O)CN)C(C)C)C(=O)N[C@@H](Cc1ccccc1)C(=O)N[C@@H](CC(N)=O)C(=O)N[C@@H](C)C(=O)N[C@@H](CC(C)C)C(=O)N[C@@H](CCCCN)C(=O)NCC(=O)N[C@H](C(=O)N[C@@H](C)C(=O)N[C@@H](CCCCN)C(=O)N[C@H](C(=O)N[C@H](C(=O)N[C@@H](C)C(=O)N[C@@H](C)C(=O)N[C@@H](CCC(N)=O)C(=O)N[C@@H](CC(C)C)C(=O)N[C@@H](CC(C)C)C(=O)N[C@@H](CCCCN)C(=O)N[C@@H](CCCCN)C(=O)N[C@@H](C)C(=O)N[C@@H](CCCNC(=N)N)C(=O)N[C@H]1CSSC[C@@H](C(=O)O)NC(=O)[C@H](CO)NC(=O)[C@H](CCCCN)NC(=O)[C@H](CC(=O)O)NC(=O)[C@H](CC(C)C)NC(=O)[C@H](CCCCN)NC1=O)C(C)C)[C@@H](C)O)C(C)C
MIC (Staphylococcus aureus; MRSA NCTC 12493, Mueller-Hinton broth; added: NaCl 150 mM): 2 µM

[O-][N+]1=C(c2ccc(Cl)cc2)C2=NCCCCN2c2ccccc21
MIC (Porphyromonas gingivalis; microbial growth; ATCC33277): 0.25 µg/mL

CC[C@H](C)[C@@H]1NC(=O)CNC(=O)[C@H](CCCCN)NC(=O)[C@H](C)NC(=O)[C@H](CCC(=O)O)NC(=O)[C@H](Cc2ccccc2)NC(=O)[C@H](CO)NC(=O)[C@H](CC(C)C)NC(=O)[C@H](C(C)C)NC(=O)[C@H](CC(=O)O)NC(=O)[C@@H](NC(=O)[C@@H](NC(=O)[C@@H](N)C(C)C)[C@@H](C)O)CSSC[C@@H]2NC(=O)[C@H](CO)NC(=O)CNC(=O)CNC(=O)[C@H](CCCCN)NC(=O)[C@H](CCCCN)NC(=O)[C@H](CCCNC(=N)N)NC(=O)[C@H](CC(C)C)NC(=O)[C@H](C)NC(=O)[C@H]([C@@H](C)CC)NC(=O)[C@H](CSSC[C@@H](C(=O)N[C@@H](CCCNC(=N)N)C(=O)N[C@@H](CC(N)=O)C(=O)O)NC(=O)[C@H](C(C)C)NC(=O)[C@H](C)NC(=O)[C@H](C(C)C)NC(=O)CNC(=O)[C@H](CC(N)=O)NC(=O)[C@H](CCC(N)=O)NC2=O)NC(=O)[C@H](Cc2c[nH]cn2)NC(=O)[C@H](CC(C)C)NC(=O)[C@H](C)NC(=O)[C@H](C)NC(=O)[C@H](C)NC(=O)[C@H](CO)NC(=O)[C@H](Cc2c[nH]cn2)NC(=O)[C@H](CC(N)=O)NC(=O)[C@H](C(C)C)NC(=O)[C@H](C)NC1=O
MIC (Gram-negative and Gram-positive bacteria; highest tested 100 µM): > 100 µM

C[N+]1=C2C(c3ccc([N+](=O)[O-])cc3)=[N+]([O-])c3ccccc3N2CCC1
MIC (Finegoldia magna): 1 µg/mL

Cc1ccc(C2OC(c3ccc(C)cc3)C(C)C(=NOCc3cn(-c4ccccc4)nn3)C2C)cc1 (stereo not shown)
MIC (Aspergillus niger; microbial growth): 12.5 µg/mL

c1ccc(CCNC2CCCc3c2[nH]c2ccc(C4CCCCC4)cc32)cc1 (stereo not shown)
MIC (Staphylococcus aureus; broth microdilution; HG001 daptomycin-resistant, cation-adjusted Mueller-Hinton broth): 4 µg/mL

COc1ccc(C2=[N+]([O-])c3ccccc3N3CC(C)(C)CN=C23)cc1
MIC (Porphyromonas asaccharolytica): 0.25 µg/mL
